Experimental data collected from several papers.
Each numbered part is a random draw from the data of one study; scales do not carry over between parts.

Series 1 — method: RNA Bind-n-Seq; molecule type: RNA; sample: in vitro; concentration: not given; baseline: input RNA pool; reading: higher = stronger binding
Target: RING finger protein unkempt homolog, zinc fingers 1-6, GST-SBP tag (UNK, Homo sapiens, UniProt Q9C0B0, residues 30-357)
Sequence of UniProt Q9C0B0 (30-357, looked up): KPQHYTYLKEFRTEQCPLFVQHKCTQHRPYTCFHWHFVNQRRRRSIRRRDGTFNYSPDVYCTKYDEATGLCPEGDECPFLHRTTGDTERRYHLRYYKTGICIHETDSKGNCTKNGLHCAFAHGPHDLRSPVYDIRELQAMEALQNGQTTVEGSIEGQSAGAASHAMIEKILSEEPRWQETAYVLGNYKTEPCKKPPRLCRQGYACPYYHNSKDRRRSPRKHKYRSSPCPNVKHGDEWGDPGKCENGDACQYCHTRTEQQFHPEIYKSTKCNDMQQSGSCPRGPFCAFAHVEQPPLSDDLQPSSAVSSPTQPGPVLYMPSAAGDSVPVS
Setting: RNA with constant flanks, human-mouse chimeric sites, ends assumed
Oligonucleotide	bound/input enrichment
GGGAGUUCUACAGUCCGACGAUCUCUGGUCACACUCGUGUGUAUGGUGUUUGCUUUGUGGACACUUCACUGGGAAAGUUUUUCAUCGGCCAGUUUUCAGAUGACCGCCACUGUUCCAGAUUUAGGACGCUAGUGGCUCACUAUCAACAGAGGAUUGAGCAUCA	0.248 ratio
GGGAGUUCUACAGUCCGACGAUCACUCUUGACUCUUUCCAUCCUCUUCCUUUCCCUCUUGAUAUUCAAGGCCAUGAAUCCCAAAAUAACAGUCUUAGUGGGAGGCUAGCACCCAAACUGAGAAUAAAUCCACCCCAGUGUCUCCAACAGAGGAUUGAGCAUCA	0.618 ratio
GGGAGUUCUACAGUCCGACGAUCGAUAAGAAAAGCUUGUUGGAGACCCGCUUGCAUGUCACUGGUAGAGACCUGAGGUGUCAAAUAGCUGAAACUUUCGGACUUCAAGAAAAUUACAUCAAGAUCGUAAUAAAUAAGAAACAGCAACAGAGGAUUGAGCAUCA	0.373 ratio
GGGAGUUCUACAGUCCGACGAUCGCAGGAUCUUCUAAGUACCAGUGGGGCAUUAUGAAAUCCCUUGGGCUCUCUGAUGACGACAUAGUGAAGUUUUCUGAAGCAGAGCACUGGCUUGAUUAUUUCCCACCACUGGCUAUUCAGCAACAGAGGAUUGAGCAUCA	0.113 ratio
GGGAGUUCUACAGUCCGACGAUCCAGGGCAUUAUUUCUCGUGCUGUUAGACACCUGUUCAAGAGUAUUGAUGAGAAAAAGCACAUAGCAAUUAAAAACGGGCUGCCCCCUCCUGAAUUCAAAGUGAAUGCCCAGUUCCUAGAGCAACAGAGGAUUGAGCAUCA	1.07 ratio
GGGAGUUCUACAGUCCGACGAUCAUUGUUGAAGCGAAUCCACUCCUAGAAGCAUUUGGAAAUGCAAAGACUGUUCGCAACAAUAAUAGCAGUCGAUUUGGAAAAUUUGUAGAAAUACAUUUCAAUGAAAAGAGUUCGGUUGUUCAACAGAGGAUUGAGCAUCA	0.168 ratio
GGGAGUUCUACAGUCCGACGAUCGGGACUGAUUCAUCCCAAGGACAGGCCACCCCAUUUGGUGUUUGGAAUGAUGACAGUAUGUUAGGGCCUAGUCAAAAUGUUGAAGCUGAGUCAAUUCAGGAUGCCAUGAGUAUGGAAGAGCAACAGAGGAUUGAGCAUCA	0.504 ratio
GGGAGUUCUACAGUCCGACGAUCUCUUAACUUAUUCAUUUAACUUAUUUUUAUAGCUAGAGCAAUAUUGUUAGUCUUAGACAAUAGCUCACAUUUUUUGAGAAGCAUGCCCUCCCUGUCCAUUUGUCUUACAAUAACACUCAGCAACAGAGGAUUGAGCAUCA	96 ratio

Series 2 — method: EMSA with sequencing; molecule type: double-stranded DNA, one strand shown; sample: in vitro; concentration: 10 and 20 nM; baseline: negative control set to 0; reading: higher = stronger binding
Target: Hepatocyte nuclear factor 3-alpha (Foxa1, Mus musculus, UniProt P35582, residues 1-468, full length assumed)
Setting: whole designed probe, mean of two concentrations, ends assumed
Residues (chain): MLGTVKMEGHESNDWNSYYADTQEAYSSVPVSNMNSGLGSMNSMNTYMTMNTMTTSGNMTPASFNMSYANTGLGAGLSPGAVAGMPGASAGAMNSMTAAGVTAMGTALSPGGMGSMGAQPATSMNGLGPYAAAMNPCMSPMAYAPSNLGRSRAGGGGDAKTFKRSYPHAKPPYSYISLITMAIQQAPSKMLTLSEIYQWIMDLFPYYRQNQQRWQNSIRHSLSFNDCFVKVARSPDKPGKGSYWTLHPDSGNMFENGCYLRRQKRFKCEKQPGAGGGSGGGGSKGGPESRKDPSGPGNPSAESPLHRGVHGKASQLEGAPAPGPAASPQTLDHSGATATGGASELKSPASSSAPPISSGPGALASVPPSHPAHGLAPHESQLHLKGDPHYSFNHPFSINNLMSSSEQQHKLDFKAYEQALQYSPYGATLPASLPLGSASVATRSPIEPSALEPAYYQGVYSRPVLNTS
Oligonucleotide	normalised bound fraction [ratio]
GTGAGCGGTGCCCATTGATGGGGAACGATTCCAGCCAGCAGAATAGGAATTTCAGAATACGATAAGGAGATGTTAAGGAAGGTCAGGCAGTAAAAAGAGGTTTGCTGACTCATGTGGTTTGTTGACTTAGCAAGTCAGGGAGAAGTCAATTGTTTGCTCTCCTGTTTTACAGTCTTTAGGTGTGGGCCAGCCCAGGGCCATTGATAGTCATTTTAGCCATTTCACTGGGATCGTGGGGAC	0.458
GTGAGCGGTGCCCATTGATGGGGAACCCCTCTTCTAACTCAGAAGGGTTGAAGCAGATAATGAAACCAGATACCTATGGGAATTAGTCAGCATTTCTTTATGTGAGTAGTTGTACTTGAGTAAATATGCAATCCTGTTTACCAATCTATTCTGTTTTACTCAGTTATTTGAACTCTTTTTTCTCTTTAAAAACAGCAAAAGGAATGAAGGAAGGAAAGCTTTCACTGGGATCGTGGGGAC	0.259
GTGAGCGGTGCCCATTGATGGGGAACATCTTCCCCCTCTTCCTTGCCCCACCAGCTCACCTACGGGGGTTATTTGCACAAAGGAAAATAAATAAAGCCGGCATTCGTTAACCCTCTTCACGCGCATACTGCTGTTTGCTCTGCATGAATCATGGTCCTTACGCGAGGCGTGGCTCCGGGAGAGCAAAGCACCGTGTCAGGCGCATGATCCGGGGTGGCCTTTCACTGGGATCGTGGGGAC	0.391
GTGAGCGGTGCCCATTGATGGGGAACACTCTGTTCATATGGCACGTTTCCTGCATATCATTCAGCCATTCTTCTCTGACACGTTCTGAGACGGAGACTTACAGGAAATACAGGCCCTGTGTAATCTCTTGAAACACAGACAAGCAAATACCCACGAGTCTTTATCGCTCTTGATTCTTGGCACAGTTCCTTGCATGTGGTAGAGGCCTAACAGTTTTTCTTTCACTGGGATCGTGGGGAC	-0.000604
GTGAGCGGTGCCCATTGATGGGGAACCCACACTGGACAATACTGCATTGTACACCTAAAATTCCATTAAGAGGGTAGATCTCATGTAAAGTATTTACAACACAAGAAAATTTTTTAAAGAGATTACATATTTAATAAATACTTTTTTCTATTTCTTAGCATACAGCACCAATGTAATTTAATATTAATTATAGCATCCACAGTTAAATTTCTCAATATTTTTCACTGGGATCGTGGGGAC	0.00346
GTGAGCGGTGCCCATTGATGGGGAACCTTTGAGTTTTCAGAGTGACTCAACACAGTTGAACTATGAATCACTTCAGTATTGTCTGTGCACACCAAAGCCCTGGCATATGGAGCAGGTGTGTACACAAGAAAGCTCTTTCCCAGCCCTGAGCTCTCAGAGCTTTCCCTAGGTGTGTGATGAGGCCACTTTCCCCCATCACTTCCCCAAGTCTAGATGTCCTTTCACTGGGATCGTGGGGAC	0.181
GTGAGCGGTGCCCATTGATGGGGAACTTTCCAGCCCTTAGTTTCTGGCATTTAACCTGACTCTGGTCCCTGAATGGCATGGGAGTGCTTTCAACCACAGGTTTCCACATTCATGCCACTAGATTGCTTTTCTGACTCATTCTGATCTACAGAGATCTTAAATTGCTTTGTGTTTCCAATGGAGAAAGAGCTTGGGAAGGGAGGATCCTAATTGTCTAAATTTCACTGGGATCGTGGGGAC	-0.0887
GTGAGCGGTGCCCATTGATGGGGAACATCTTCCCCCTCTTCCTTGCCCCACCAGCTCACCTTCCCGGGTTATTTGCAGATAGGAAAAAAAATTAAGCCGGCATTCGTTAACCCTCTTCTGGCGCAAACTGCTGTTTGCTCTGGATGAATCATGGTCCTTTGGCGACGCCAGGCTCCGGGAGAGCAAAGCACCGTGTCAGGGCCATGATCCGGGGTGGCCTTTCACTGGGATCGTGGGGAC	0.161

Series 3 — method: protein binding microarray; molecule type: double-stranded DNA, one strand shown; sample: in vitro; concentration: not given; baseline: not given; reading: higher = stronger binding
Target: Histone acetyltransferase KAT6A, winged helix 1, GST fusion (KAT6A, Homo sapiens, UniProt Q92794, residues 1-85)
Setting: 8-mer, flanks averaged, mean of 2 arrays, mostly near background
Target sequence (chain): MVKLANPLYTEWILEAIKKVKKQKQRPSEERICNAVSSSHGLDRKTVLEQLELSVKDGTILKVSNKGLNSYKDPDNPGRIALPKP
Oligonucleotide	E-score
CCCTGTAA	-0.0261
AACAACAA	-0.12
TACGATGA	-0.0434
GATAATGC	0.00402
CTTAGTGA	-0.192
AAGCTTGT	-0.154
CAACAATC	-0.192
GTAACGGA	0.157

Single results of other studies
Sequence	target	read-out	molecule type	concentration	endpoint	value
ITDFNIDTY	HLA class I histocompatibility antigen, A alpha chain, allele A*80:01 (Homo sapiens, UniProt P04439)	peptide-MHC binding	peptide	concentration not given	binding	inactive

For quick reference, copied from above (series 3):
Oligonucleotide	E-score
GATAATGC	0.00402
CTTAGTGA	-0.192
AAGCTTGT	-0.154
